Measurements of several laboratories.
Lines come from different studies, so protocols differ. Numbers after ± are the reported error.

`C/C=C(\C)C(=O)O[C@@H]1[C@@H](O)[C@@H]2O[C@H]3[C@H](O[C@@H](CCCCC)CCCCCCC(=O)CCC(=O)OC[C@@H](O2)[C@H]1OC(=O)/C=C/c1ccccc1)O[C@H](C)[C@H](OC(C)=O)[C@@H]3O` has an IC50 of 0.0065 µM (MDA-MB-231; cytotoxicity).
With `O=c1c(O)c(-c2ccc(O)c(O)c2)oc2c1ccc1ccccc12` the viability was 65.6% (rat H4IIE; MTT; 20 or 50 µM, 24 h, added: cyclosporin A; baseline: control).
`COc1cccc2c1C(=O)c1c(O)c3c(c(O)c1C2=O)C[C@@](O)(C(=O)CO)C[C@@H]3O[C@H]1C[C@H](N)[C@H](O)[C@H](C)O1` — result for “intracellular drug remaining”: 45% (HCT-8/ADR; concentration not given, 4 h after loading, 2 h loading then drug-free medium).
With `N#Cc1ccc(-c2ccc(-c3cccs3)o2)cc1F` the mutant frequency was 26% (Salmonella enterica; TA1535; 10 µM, 48 h, added: sodium azide after pre-exposure; baseline: sodium azide alone).
`C[C@@H]1CCO[C@H]2Cn3cc(C(=O)NCc4ccc(F)cc4F)c(=O)c(O)c3C(=O)N12` gave an intracellular concentration of 46.6 ± 2.71 ng/mL (hCMEC/D3; 10 µM, 1 h, in antiretroviral combination).
For `CC[C@H](C)[C@H](NC(=O)[C@H](CCCCN)NC(=O)[C@@H](NC(=O)[C@H](CC(N)=O)NC(=O)[C@H](C)NC(=O)[C@H](CCCNC(=N)N)NC(=O)[C@H](CCCNC(=N)N)NC(=O)[C@H](CC(N)=O)NC(=O)[C@H](CCCNC(=N)N)NC(=O)[C@H](CCCNC(=N)N)NC(=O)[C@H](C)NC(=O)[C@@H](NC(=O)[C@H](CO)NC(=O)[C@@H](NC(=O)[C@@H](NC(=O)[C@H](CS)NC(=O)[C@H](CCCCN)NC(=O)[C@@H](N)CCCNC(=N)N)C(C)C)[C@@H](C)CC)C(C)C)[C@@H](C)CC)C(=O)N[C@@H](CC(C)C)C(=O)N[C@@H](CS)C(=O)N[C@@H](CC(N)=O)C(=O)O`, the hemolysis was 0.84% (human red blood cells; 128 µg/mL, 3 h, 37 °C; baseline: Triton X-100).
The ATP level of `O=NN1CCN(C2CCCC2)CC1` is reported as 86.4% (HepaRG 3D spheroids; cell viability; concentration not given, 24 h; baseline: vehicle).
For `CCC(CC)COC(=O)[C@H](C)N[P@](=O)(OC[C@H]1O[C@@](C#N)(c2ccc3c(N)ncnn23)[C@H](O)[C@@H]1O)Oc1ccccc1`, the IC50 was 43.1 ± 3.28 µM (Vero E6; MTT).
`O=C(Cc1ccccc1Nc1c(Cl)cccc1Cl)Oc1ccc(-c2cc(=S)ss2)cc1` has an IC50 of 16 µM (HepG2 and LS180; EROD activity, inhibitor; 24 h, averaged over cell lines, added: DMBA 1 µM).
For `CC(C)CCCCCCCOP(=O)(Oc1ccccc1)Oc1ccccc1`, “point of departure” read less than 30 µM (human iPSC-derived cardiomyocytes; mitochondrial membrane potential, refers to: JC-10 granules; 30 min).
For `C[C@H]1CNCCc2ccc(Cl)cc21`, the AUC(0-inf) was 52.8 ± 2.84 ng·h/mL (male Sprague-Dawley rat, plasma; subcutaneous, pimavanserin 1 + lorcaserin 1 mg/kg, pimavanserin 15 min earlier).
For `Cc1nn(Cc2ccc(O)c(C=O)c2)c(=O)[nH]c1=O`, “minimum cytotoxic concentration” read no less than 20 µM (HEL fibroblasts; cell morphology alteration).
For `CCN(CC)N=O`, “lowest effective concentration” read 312 µM (HepaRG 3D spheroids; DNA damage, refers to: % tail DNA; 24 h; baseline: vehicle).
The inhibition of `N=C(N)c1ccc(-c2ccc(-c3cccs3)o2)cc1F` is reported as 67% (Salmonella enterica; sodium azide mutagenicity; TA1535; 10 µM, 48 h, added: sodium azide 2 µg/plate after pre-exposure).
For `CO[C@]1(CO)O[C@@H](n2ccc(N)nc2=O)C(F)(F)[C@@H]1O`, “minimum cytotoxic concentration” read greater than 100 µM (HEL embryonic lung fibroblasts; cell morphology, microscopy).
`C=C(C[C@H](N)C(=O)O)C(=O)NCc1ccc(F)cc1`: “concentration increasing cytotoxicity” 320 µM (MDA-MB-231; 24 h; baseline: vehicle).
Under “apoptotic cells ratio”, `N#Cc1nn(-c2c(Cl)cc(C(F)(F)F)cc2Cl)c(N)c1[S+]([O-])C(F)(F)F` (stereo not shown) is recorded as 8.6 (Caco-2; Hoechst and PI staining; 25 µM, 48 h; baseline: untreated).
For `Cl[C@H]1[C@H](Cl)[C@@H](Cl)[C@@H](Cl)[C@H](Cl)[C@H]1Cl`, “point of departure” read less than 30 µM (human iPSC-derived cardiomyocytes; mitochondrial membrane potential, refers to: JC-10 granules; 30 min).
The intracellular accumulation of `C[C@H](Cn1cnc2c(N)ncnc21)OCP(=O)(O)O` is reported as 5.32 ± 1.07 pmol/mg protein (hCMEC/D3; 10 µM, 1 h, 37 °C).
`COc1cccc(N2C(N)=NC(N)=NC23CCN(C(=O)c2ccc(C(F)(F)F)cc2C)CC3)c1` — result for “minimum cytotoxic concentration”: greater than 100 µM (MDCK; microscopy, altered cell morphology).
The ED50 of `CCCCCc1cc(O)c2c(c1)OC(C)(C)[C@@H]1CCC(C)=C[C@@H]21` is reported as 3.85 mg/kg (catalepsy (ring immobility); ICR mice, male; intraperitoneal).
With `CC(C)c1ccc2c(c1)CC[C@H]1[C@](C)(CN)CCC[C@]21C` the IC50 was 1.63 µM (1205Lu; cell growth or viability, MTS; 48 h).
`C=C(C[C@H](N)C(=O)O)C(=O)NCc1ccccc1` — result for “concentration increasing cytotoxicity”: 320 µM (MDA-MB-231; 24 h; baseline: vehicle).
For `CC(C)(C)OC(=O)N1CCC2(CC1)N=C(N)N=C(N)N2c1cccc(Cl)c1`, “minimum cytotoxic concentration” read no less than 20 µM (MDCK; microscopy, altered cell morphology).
`CN[C@@](C)(C[18F])C(=O)O` has a tracer uptake of 1.9 %ID/g (MDA-MB-468 tumour model; host not given, bone; 30 min, tumour-bearing).

Excerpt of the above:
For `CC(C)CCCCCCCOP(=O)(Oc1ccccc1)Oc1ccccc1`, “point of departure” read less than 30 µM (human iPSC-derived cardiomyocytes; mitochondrial membrane potential, refers to: JC-10 granules; 30 min).
For `Cc1nn(Cc2ccc(O)c(C=O)c2)c(=O)[nH]c1=O`, “minimum cytotoxic concentration” read no less than 20 µM (HEL fibroblasts; cell morphology alteration).
The inhibition of `N=C(N)c1ccc(-c2ccc(-c3cccs3)o2)cc1F` is reported as 67% (Salmonella enterica; sodium azide mutagenicity; TA1535; 10 µM, 48 h, added: sodium azide 2 µg/plate after pre-exposure).
